Published values pooled from the literature.
A part holds a random share of what one study measured. Several values in a cell are separate wells, animals, samples, runs or records.
Chain of UniProt P42681 (whole entry, looked up): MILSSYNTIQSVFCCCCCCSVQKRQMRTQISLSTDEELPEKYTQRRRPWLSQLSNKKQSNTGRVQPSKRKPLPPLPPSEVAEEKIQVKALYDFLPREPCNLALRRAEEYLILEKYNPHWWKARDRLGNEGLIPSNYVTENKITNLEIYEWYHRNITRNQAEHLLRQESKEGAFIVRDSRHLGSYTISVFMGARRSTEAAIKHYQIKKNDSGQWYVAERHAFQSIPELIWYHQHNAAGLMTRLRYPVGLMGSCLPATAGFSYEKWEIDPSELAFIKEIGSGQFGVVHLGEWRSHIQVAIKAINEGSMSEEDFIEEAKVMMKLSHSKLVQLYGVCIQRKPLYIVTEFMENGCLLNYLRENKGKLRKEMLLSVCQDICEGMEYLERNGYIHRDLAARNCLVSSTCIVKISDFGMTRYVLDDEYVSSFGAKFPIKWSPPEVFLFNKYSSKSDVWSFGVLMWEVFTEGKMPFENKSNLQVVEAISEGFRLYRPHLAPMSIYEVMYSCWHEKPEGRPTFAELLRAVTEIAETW
Chain of UniProt P51813 (whole entry, looked up): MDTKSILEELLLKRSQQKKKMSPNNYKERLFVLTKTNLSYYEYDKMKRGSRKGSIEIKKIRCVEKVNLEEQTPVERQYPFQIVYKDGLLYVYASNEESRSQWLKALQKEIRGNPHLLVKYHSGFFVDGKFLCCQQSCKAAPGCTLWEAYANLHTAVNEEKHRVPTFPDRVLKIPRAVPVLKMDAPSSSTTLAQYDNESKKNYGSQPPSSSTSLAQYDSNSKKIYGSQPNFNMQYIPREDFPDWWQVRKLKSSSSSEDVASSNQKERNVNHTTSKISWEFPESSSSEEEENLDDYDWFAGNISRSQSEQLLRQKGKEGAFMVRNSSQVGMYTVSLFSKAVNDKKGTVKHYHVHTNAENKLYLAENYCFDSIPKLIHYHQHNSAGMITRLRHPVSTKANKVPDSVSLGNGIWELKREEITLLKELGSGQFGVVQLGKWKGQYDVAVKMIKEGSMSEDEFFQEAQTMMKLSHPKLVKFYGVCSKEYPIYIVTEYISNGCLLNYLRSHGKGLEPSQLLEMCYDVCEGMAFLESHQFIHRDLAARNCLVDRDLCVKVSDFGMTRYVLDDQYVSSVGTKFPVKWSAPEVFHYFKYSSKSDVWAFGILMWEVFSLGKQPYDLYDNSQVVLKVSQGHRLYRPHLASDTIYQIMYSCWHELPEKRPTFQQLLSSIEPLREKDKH
Chain of UniProt P10721 (whole entry, unmodified, looked up): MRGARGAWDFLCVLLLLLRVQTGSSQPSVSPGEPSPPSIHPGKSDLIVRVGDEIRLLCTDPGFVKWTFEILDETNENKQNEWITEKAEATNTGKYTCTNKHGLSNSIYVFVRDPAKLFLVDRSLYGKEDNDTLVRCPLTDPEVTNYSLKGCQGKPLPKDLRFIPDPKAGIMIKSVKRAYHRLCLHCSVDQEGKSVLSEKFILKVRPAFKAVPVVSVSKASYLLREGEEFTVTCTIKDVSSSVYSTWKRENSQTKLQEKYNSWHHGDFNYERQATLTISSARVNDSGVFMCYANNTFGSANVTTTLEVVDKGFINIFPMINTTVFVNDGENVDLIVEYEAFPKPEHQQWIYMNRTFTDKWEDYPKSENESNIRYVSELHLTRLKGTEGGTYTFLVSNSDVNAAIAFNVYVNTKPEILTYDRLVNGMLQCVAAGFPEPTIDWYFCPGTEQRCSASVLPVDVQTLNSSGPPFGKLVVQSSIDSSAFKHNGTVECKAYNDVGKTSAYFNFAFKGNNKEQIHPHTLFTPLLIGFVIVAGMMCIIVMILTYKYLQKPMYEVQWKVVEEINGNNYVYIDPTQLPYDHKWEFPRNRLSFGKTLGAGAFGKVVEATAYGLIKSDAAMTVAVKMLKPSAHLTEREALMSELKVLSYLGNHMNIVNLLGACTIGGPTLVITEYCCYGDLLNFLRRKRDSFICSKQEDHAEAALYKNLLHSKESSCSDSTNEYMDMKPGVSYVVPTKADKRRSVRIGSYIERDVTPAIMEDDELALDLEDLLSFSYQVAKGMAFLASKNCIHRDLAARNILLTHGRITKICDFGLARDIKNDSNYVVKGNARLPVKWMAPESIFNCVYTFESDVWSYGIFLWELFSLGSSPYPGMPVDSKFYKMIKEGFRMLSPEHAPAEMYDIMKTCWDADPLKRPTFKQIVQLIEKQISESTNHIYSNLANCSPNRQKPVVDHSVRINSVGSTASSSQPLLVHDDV
Chain of UniProt Q13976 (whole entry, looked up): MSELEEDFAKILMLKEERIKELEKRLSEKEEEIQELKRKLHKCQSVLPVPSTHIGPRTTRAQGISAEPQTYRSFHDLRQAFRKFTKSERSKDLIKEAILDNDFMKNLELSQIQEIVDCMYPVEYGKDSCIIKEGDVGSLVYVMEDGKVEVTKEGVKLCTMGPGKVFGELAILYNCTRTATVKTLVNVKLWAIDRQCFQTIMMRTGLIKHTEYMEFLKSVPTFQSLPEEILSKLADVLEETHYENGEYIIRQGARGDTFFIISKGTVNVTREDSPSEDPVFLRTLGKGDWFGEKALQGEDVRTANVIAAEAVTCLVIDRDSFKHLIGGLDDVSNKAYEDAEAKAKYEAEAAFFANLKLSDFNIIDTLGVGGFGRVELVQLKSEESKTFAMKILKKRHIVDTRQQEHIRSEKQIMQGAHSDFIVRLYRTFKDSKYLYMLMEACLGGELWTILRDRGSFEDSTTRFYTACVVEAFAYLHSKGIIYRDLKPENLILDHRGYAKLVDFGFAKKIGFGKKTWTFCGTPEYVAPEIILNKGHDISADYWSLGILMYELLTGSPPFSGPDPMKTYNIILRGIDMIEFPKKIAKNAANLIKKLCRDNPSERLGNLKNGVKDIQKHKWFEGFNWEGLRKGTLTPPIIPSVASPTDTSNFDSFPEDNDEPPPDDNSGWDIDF
Chain of UniProt Q9H3Y6 (whole entry, looked up): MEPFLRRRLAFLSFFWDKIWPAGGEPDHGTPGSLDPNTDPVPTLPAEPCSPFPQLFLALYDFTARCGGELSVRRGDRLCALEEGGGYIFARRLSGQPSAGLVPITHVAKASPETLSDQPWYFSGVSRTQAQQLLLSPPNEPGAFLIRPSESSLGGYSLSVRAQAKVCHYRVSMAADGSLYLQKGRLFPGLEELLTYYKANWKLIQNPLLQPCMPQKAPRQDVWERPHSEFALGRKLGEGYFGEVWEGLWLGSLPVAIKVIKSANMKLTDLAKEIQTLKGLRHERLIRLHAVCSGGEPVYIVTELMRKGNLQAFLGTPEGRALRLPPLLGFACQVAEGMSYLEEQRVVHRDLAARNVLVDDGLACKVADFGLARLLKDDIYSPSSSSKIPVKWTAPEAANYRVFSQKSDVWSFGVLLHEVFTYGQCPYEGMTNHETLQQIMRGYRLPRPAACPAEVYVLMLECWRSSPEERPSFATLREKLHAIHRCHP
Chain of UniProt Q9H2X6 (whole entry, looked up): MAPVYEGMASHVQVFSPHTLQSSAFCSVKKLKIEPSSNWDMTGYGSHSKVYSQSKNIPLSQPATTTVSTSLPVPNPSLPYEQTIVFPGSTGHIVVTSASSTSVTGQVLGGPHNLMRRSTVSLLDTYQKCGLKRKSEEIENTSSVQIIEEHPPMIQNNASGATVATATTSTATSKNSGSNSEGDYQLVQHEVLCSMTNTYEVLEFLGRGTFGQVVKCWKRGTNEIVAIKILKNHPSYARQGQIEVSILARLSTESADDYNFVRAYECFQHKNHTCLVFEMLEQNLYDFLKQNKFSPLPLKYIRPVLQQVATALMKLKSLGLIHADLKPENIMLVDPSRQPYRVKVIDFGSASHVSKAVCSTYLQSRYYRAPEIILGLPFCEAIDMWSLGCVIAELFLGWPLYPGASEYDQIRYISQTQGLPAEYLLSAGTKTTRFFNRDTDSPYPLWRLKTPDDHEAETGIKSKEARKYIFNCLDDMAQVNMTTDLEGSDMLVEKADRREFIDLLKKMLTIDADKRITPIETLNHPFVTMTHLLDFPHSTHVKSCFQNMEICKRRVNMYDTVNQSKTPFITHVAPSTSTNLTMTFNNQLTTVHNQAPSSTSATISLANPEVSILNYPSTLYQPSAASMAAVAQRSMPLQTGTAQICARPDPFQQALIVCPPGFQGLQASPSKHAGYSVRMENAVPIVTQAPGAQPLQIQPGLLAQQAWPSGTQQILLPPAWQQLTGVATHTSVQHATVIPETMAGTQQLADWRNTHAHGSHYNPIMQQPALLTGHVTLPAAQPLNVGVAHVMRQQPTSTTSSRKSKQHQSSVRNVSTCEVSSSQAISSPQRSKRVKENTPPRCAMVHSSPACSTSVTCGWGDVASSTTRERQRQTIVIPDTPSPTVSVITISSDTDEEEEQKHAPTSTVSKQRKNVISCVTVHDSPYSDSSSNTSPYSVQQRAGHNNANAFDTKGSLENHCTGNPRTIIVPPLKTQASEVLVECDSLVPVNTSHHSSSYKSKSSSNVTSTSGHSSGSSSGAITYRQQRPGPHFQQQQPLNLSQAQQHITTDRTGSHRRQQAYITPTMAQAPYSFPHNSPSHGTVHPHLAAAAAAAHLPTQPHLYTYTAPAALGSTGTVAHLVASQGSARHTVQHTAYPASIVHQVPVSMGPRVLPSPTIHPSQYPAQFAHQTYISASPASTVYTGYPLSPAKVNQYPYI

Series 1
Structure (SMILES): Cc1cc(NC(=O)c2cccc(S(F)(F)(F)(F)F)c2)cc(-n2ccn3nc(-c4cccnc4)cc23)c1
Read-out: cell-free assay
Method: competition with immobilised ligand
Concentration: 1 µM
Quantity: remaining binding
Homeodomain-interacting protein kinase 2 (HIPK2, Homo sapiens, UniProt Q9H2X6): 85%
Cytoplasmic tyrosine-protein kinase BMX (BMX, Homo sapiens, UniProt P51813): 100%
BDNF/NT-3 growth factors receptor (NTRK2, Homo sapiens, UniProt Q16620): 40%
Tyrosine-protein kinase Yes (YES1, Homo sapiens, UniProt P07947): 100%
Serine/threonine-protein kinase TAO1 (TAOK1, Homo sapiens, UniProt Q7L7X3): 100%
RAF proto-oncogene serine/threonine-protein kinase (RAF1, Homo sapiens, UniProt P04049): 29.4%
Ribosomal protein S6 kinase alpha-4, C-terminal kinase domain (RPS6KA4, Homo sapiens, UniProt O75676): 100%
Homeodomain-interacting protein kinase 1 (HIPK1, Homo sapiens, UniProt Q86Z02): 49.1%
Phosphatidylinositol 4,5-bisphosphate 3-kinase catalytic subunit alpha isoform (PIK3CA, Homo sapiens, UniProt P42336, H1047Y): 22.9%
cGMP-dependent protein kinase 1 (PRKG1, Homo sapiens, UniProt Q13976): 100%
Rho-associated protein kinase 1 (ROCK1, Homo sapiens, UniProt Q13464): 74.8%
Tyrosine-protein kinase Srms (SRMS, Homo sapiens, UniProt Q9H3Y6): 86.9%
SNF-related serine/threonine-protein kinase (SNRK, Homo sapiens, UniProt Q9NRH2): 100%
Mast/stem cell growth factor receptor Kit (KIT, Homo sapiens, UniProt P10721, V559D/V654A): 100%
Tyrosine-protein kinase TXK (TXK, Homo sapiens, UniProt P42681): 56.2%

Series 2
Target: Mitogen-activated protein kinase 10 (MAPK10, Homo sapiens, UniProt P53779)
Chain of UniProt P53779 (whole entry, looked up): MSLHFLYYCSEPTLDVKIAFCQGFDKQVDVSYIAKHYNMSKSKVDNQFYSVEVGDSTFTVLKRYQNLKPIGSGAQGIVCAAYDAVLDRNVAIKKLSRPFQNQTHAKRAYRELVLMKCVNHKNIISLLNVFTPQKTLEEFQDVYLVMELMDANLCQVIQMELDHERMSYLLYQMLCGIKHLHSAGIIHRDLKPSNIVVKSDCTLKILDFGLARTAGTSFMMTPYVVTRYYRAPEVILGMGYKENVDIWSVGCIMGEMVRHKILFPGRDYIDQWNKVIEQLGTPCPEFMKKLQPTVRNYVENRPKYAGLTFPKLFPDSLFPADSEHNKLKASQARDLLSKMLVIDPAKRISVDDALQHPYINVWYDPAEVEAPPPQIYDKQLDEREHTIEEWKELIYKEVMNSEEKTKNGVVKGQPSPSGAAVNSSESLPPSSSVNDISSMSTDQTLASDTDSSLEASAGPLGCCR
Read-out: enzyme activity
Action: inhibitor
Concentration: 0.5 µM
Baseline: control
Quantity: remaining activity
c1ccc(-c2n[nH]c3c2oc2ccccc23)cc1: 93.4%
COc1ccc2c(c1)c(C1=C(c3c[nH]c4ccccc34)C(=O)NC1=O)cn2CCCN(C)C: 88.8%
Nc1nc(Nc2ccc(S(N)(=O)=O)cc2)nn1C(=S)Nc1c(F)cccc1F: 105%
CNc1cc2c(Nc3cccc(Br)c3)ncnc2cn1: 96.1%
CC(C)n1cnc2c(Nc3cccc(Cl)c3)nc(NCCO)nc21: 101%
COc1ccc(COc2ccc(Cc3cnc(N)nc3N)cc2OC)cc1: 84.4%
CC(C)N(CCC(=O)c1ccc2ccccc2c1)Cc1ccccc1: 91.1%
O=C(c1cc2cc(O)ccc2[nH]1)c1cc2cc(O)ccc2[nH]1: 91.6%
CC(C)(C)c1nc2c3cc[nH]c(=O)c3c3cc(F)ccc3c2[nH]1: 107%
c1cc(-c2cnn3cc(-c4ccc(OCCN5CCCCC5)cc4)cnc23)ccn1: 104%
O=C1NC(=O)c2c1c1c3ccccc3[nH]c1c1[nH]c3cc(Br)ccc3c21: 105%
CN(C)S(=O)(=O)c1ccc2c(c1)/C(=C/c1cc3c([nH]1)CCCC3)C(=O)N2: 105%
O=C1NC(=O)/C(=C/c2ccc3c(c2)OC(F)(F)O3)S1: 102%
NC(=O)c1cccc(-c2cc(Nc3ccc(OC(F)(F)F)cc3)ncn2)c1: 104%
O=c1c(-c2ccc(F)cc2)c(-c2ccncc2)[nH]n1-c1ccc(Cl)cc1: 97.1%
O=C(O)/C=C/c1cc(Br)c(Br)c(Br)c1Br: 96.3%
COc1cc2c(Nc3ccc(Br)cc3F)ncnc2cc1OCC1CCN(C)CC1: 96.9%
COc1cc2c(N3CCN(C(=O)Nc4ccc(OC(C)C)cc4)CC3)ncnc2cc1OCCCN1CCCCC1: 94.6%
O=C(c1ccccc1)c1ccc(N2CCOCC2)cc1O: 75.3%
O=C1Cc2c([nH]c3ccc(Br)cc23)-c2ccccc2N1: 89.6%
Cc1cc(Nc2cc(N3CCN(C)CC3)nc(Sc3ccc(NC(=O)C4CC4)cc3)n2)[nH]n1: 107%
CCCCc1c(-c2ccc(OC)cc2)[nH]c2nccnc12: 97.2%
Cc1ccc(S(=O)(=O)/C=C/C#N)cc1: 107%
CN1CCN(c2ccc3nc(-c4c(N)c5c(F)cccc5[nH]c4=O)[nH]c3c2)CC1: 108%

Series 3
Cell line: mouse MPNST tumor cells
Method: high-content nuclear imaging
Measured: cell number
Concentration: 10 µM
Time: 12 h
Notes: mean of 2 replicates
Baseline: plate mean
Reading: higher = more cells
Quantity: nuclei count
CC(=O)Nc1nc2c(Oc3cc(-c4ccc(C(F)(F)F)cc4)ncn3)cccc2s1: 0.413 z-score
CCC(Cc1c(I)cc(I)c(N)c1I)C(=O)O (stereo not shown): 0.879 z-score
O=C(O)c1cnccn1: 1.43 z-score
Cn1c(=O)c2c(ncn2CC2OCCO2)n(C)c1=O: 0.888 z-score
COC(=O)C1=C(C)NC(C)=C(C(=O)OCCCN2CCC(c3ccccc3)(c3ccccc3)CC2)[C@H]1c1cccc([N+](=O)[O-])c1: -5.23 z-score
NS(=O)(=O)c1cc2c(cc1C(F)(F)F)NC(Cc1ccccc1)NS2(=O)=O (stereo not shown): -0.111 z-score
COc1ccc(-c2c(C)nn3c(C(F)(F)F)cc(C)nc23)c(F)c1F: 0.532 z-score
O=C(c1ccc(Nc2nccc(-c3cc4ccccc4s3)n2)cc1)N1CCC(N2CCCC2)CC1: -4.91 z-score
O=C1OCCN1/N=C/c1ccc([N+](=O)[O-])o1: 0.648 z-score and 1.54 z-score
O=C(Nc1ccccc1)c1cc([N+](=O)[O-])ccc1Cl: -0.534 z-score

Series 4
Species: human
Matrix: microsomes or S9
Concentration: 2 µM
Time: 0.5 h
Quantity: remaining compound
Cc1ccc(N2C(=O)C(=N)c3c2sc(C)c3C)cc1: 48.2%
CCOc1ccc(CCNC(=O)Cn2cccc2C(=O)c2ccccc2C)cc1OCC: 3.53%
COC(=O)c1coc(C(=O)N(C)c2ccc(C)c(N(C)C)c2)c1: 2.7%
Cc1cnn(CCCn2ncc(N(C)C)cc2=O)c1: 90.2%
CCC1=NN2C(=NC(C(=O)O)=CC2c2ccc(O)cc2)N1 (stereo not shown): 88.9%
CC(C)C(C(=O)Nc1cccc2[nH]ccc12)N1Cc2ccccc2C1=O (stereo not shown): 49.3%
CCCN1CCN(C(=O)C2=C(C)C(=O)OC23CCN(S(=O)(=O)CC)CC3)CC1: > 100%
O=C(Cc1csc(COc2ccccc2)n1)NCCc1c[nH]c2ccccc12: 13.4%
Cc1cc(=O)c(OCC(=O)Nc2ccc3[nH]c(CC(C)C)nc3c2)c[nH]1: 56.9%

A few entries again (series 2):
CC(C)N(CCC(=O)c1ccc2ccccc2c1)Cc1ccccc1: 91.1%
O=C(c1cc2cc(O)ccc2[nH]1)c1cc2cc(O)ccc2[nH]1: 91.6%
CC(C)(C)c1nc2c3cc[nH]c(=O)c3c3cc(F)ccc3c2[nH]1: 107%
c1cc(-c2cnn3cc(-c4ccc(OCCN5CCCCC5)cc4)cnc23)ccn1: 104%
O=C1NC(=O)c2c1c1c3ccccc3[nH]c1c1[nH]c3cc(Br)ccc3c21: 105%
CN(C)S(=O)(=O)c1ccc2c(c1)/C(=C/c1cc3c([nH]1)CCCC3)C(=O)N2: 105%
O=C1NC(=O)/C(=C/c2ccc3c(c2)OC(F)(F)O3)S1: 102%
NC(=O)c1cccc(-c2cc(Nc3ccc(OC(F)(F)F)cc3)ncn2)c1: 104%
